Assay results gathered from unrelated publications.
A part holds a random share of what one study measured.

Series 1 — technique: RNA Bind-n-Seq; form: RNA; sample: in vitro; tested at: 365 nM; relative to: no-protein control; direction: higher = stronger binding
Target: RNA binding protein fox-1 homolog 2, RRM domain, GST-SBP tag (RBFOX2, Homo sapiens, UniProt O43251-10, residues 100-194)
Notes: natural RNA segment, single round, ends assumed
Construct (chain): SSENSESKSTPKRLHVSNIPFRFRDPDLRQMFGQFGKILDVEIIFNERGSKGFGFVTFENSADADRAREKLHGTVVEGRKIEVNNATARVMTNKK
| Oligonucleotide | RBNS enrichment (R) |
| --- | --- |
| GGGAGUUCUACAGUCCGACGAUCCGACAAUGGAUUUUUAACCAAGACAUUUUUGUUUUUGGAAAAAAAAAAAAAAUCAAAUGCAGUGACUAUUUUAUAUGGACAUGUGUCUUGAUUAUAUCUAUUAAGUGUGCUGGAAUUCUCGGGUGCCAA | 0.457 |
| GGGAGUUCUACAGUCCGACGAUCACCUGGAGCUGUGGCAAUGAUGCCAGCAACCUGUGUCACCCAAAAUAGUCAAAAUCCAGCCCUCCACAGACACUCCCCAGGACCUGGGGAGGGAAGGGAUUUUGAGUCACUGGAAUUCUCGGGUGCCAA | 0.273 |
| GGGAGUUCUACAGUCCGACGAUCAAGUAACCAUAUGCUAUAAGCAUUUGAAUAUGUUUAAUUUUAUCAUAAUAGCAUCUGUAAAAGUACAUCUUACACAUUAUAUAGAGGGUUCUUGUUUGAAAUUUUCAGUUUGGAAUUCUCGGGUGCCAA | 1.39 |

Series 2 — technique: universal PBM; form: double-stranded DNA, one strand shown; sample: in vitro; tested at: not given; direction: higher = stronger binding
Target: Sal-like protein 4, full length isoform B (SALL4, Homo sapiens, UniProt Q9UJQ4-2, residues 1-616)
Notes: 8-mer, flanks averaged, mean of replicates
| Oligonucleotide | E-score |
| --- | --- |
| ACCCGAAG | -0.127 |
| GTGATCGA | 0.0122 |
| AATCATGA | 0.221 |
| GTAAGGTA | 0.193 |

Series 3 — technique: protein-binding microarray; form: double-stranded DNA, one strand shown; sample: in vitro; tested at: 250 nM; notes: 60-bp whole probe; added: salmon DNA 0.4 mg/ml; relative to: random background probes; direction: higher = stronger binding
Target: Interferon regulatory factor 5, full length, phosphomimetic (IRF5, Homo sapiens, UniProt Q13568-2, residues 1-514, K96S/S451D/S453D/S456D/S462D)
| Oligonucleotide | log fluorescence [z-score] |
| --- | --- |
| GCCTAGCACACAGGACAGTCCCATCTACCGTGCTAGGTCTTGATTCGCTTGACGCTGCTG | -0.331 |
| GCCTAGCACGACGATATCGGGTTTCGACACGTGCTAGTCTTGATTCGCTTGACGCTGCTG | 4.37 |
| GCCTAGCACTCACCTCTCACGCATCTGACTGTGCTAGTCTTGATTCGCTTGACGCTGCTG | 0.12 |
| GCCTAGCACTCACTTTCCTTTATGTAACTGTGCTAGGTCTTGATTCGCTTGACGCTGCTG | 2.68 |

Other studies, line by line
| Molecule | target | assay | test system | conditions | scale | endpoint | result |
| --- | --- | --- | --- | --- | --- | --- | --- |
| PhoQ, residues 284 288 289 292 302 303 QWQEDG | PhoP, residues 12 14 15 18 19 FWNTL (Escherichia coli, UniProt P23836) | Sort-seq, refers to: YFP reporter | E. coli | PhoQ-PhoP variant library, added: 10 µM Mg2+ | relative to: high Mg2+ state, higher = stronger signaling | fold induction | 1.16 |

Excerpt of the above (series 3):
| Oligonucleotide | log fluorescence [z-score] |
| --- | --- |
| GCCTAGCACACAGGACAGTCCCATCTACCGTGCTAGGTCTTGATTCGCTTGACGCTGCTG | -0.331 |
| GCCTAGCACGACGATATCGGGTTTCGACACGTGCTAGTCTTGATTCGCTTGACGCTGCTG | 4.37 |
